Assay results from different studies.
± gives the spread as reported.

`NLWNTFTRL`: “antigen-specific T cell frequency” 0.00266% (SARS-CoV-2; peptide, T cells from acute-phase patients; dose not given).
For `CCCN1CCC=C(c2cc(-c3ccc(C)cc3)no2)C1.O=C(O)C(=O)O`, “viral replication inhibition” read “inactive” (SARS-CoV-2; concentration not given, Paris laboratory).
`CCC1CCCCN1CCCNC(=O)c1sc2nc(C)cc(C)c2c1-n1cccc1` (centres unmarked) gave an efficacy of 35.6% (SARS-CoV-2; cytopathic effect; USA_WA1/2020; retest, 8-point, duplicates).
`CCC(CC)COC(=O)[C@H](C)N[P@](=O)(OC[C@H]1O[C@@](C#N)(c2ccc3c(N)ncnn23)[C@H](O)[C@@H]1O)Oc1ccccc1` gave a viral titre of 110000 IU/mL (SARS-CoV-2; Vero; 1 µM).
For `CCCCCCCCCC(O)CC(=O)CCc1ccc(O)c(OC)c1` (centres unmarked), the IC50 was > 2 µM (SARS-CoV-2; viral replication; Huh-7).
`Cc1nn(-c2ccc(Cl)cc2)c2c1C(c1ccc(I)cc1)C(C#N)=C(N)O2` (centres unmarked) has a viral titre of 978000 IU/mL (SARS-CoV-2; Vero; 1 µM).
The IC50 of `O=NN(CCCl)C(=O)NCCCl` is reported as > 2 µM (SARS-CoV-2; viral replication; Huh-7).
The viral reduction of `Cc1nn(-c2ccc(Cl)cc2)c2c1C(c1c(Cl)cccc1Cl)C(C#N)=C(N)O2` (centres unmarked) is reported as 4.47% (SARS-CoV-2; viral replication; Vero; 10 µM).
For `CC(C)(C)c1ccc(CN2CCN(C(c3ccccc3)c3ccc(Cl)cc3)CC2)cc1` (centres unmarked), the EC50 was 20.4 µM (SARS-CoV-2; viral replication, high-content imaging screen; cell-based).
`COc1cc(C2C(C#N)=C(N)Oc3c2c(C)nn3-c2ccc(Cl)cc2)cc(OC)c1OC` (centres unmarked) gave a viral titre of 756000 IU/mL (SARS-CoV-2; Vero; 1 µM).
The IC50 of `CC(C)N1CCN(c2ccc(OCC3COC(Cn4cncn4)(c4ccc(Cl)cc4Cl)O3)cc2)CC1` (centres unmarked) is reported as > 2 µM (SARS-CoV-2; viral replication; Huh-7).
With `Cn1c(=O)c2c(nc(C=Cc3cccc(Cl)c3)n2C)n(C)c1=O` the inhibition was 57% (SARS-CoV-2; viral replication; Vero E6, USA-WA1/2020; 2.5 µM).
The efficacy of `Cc1oc(-c2cccc(Cl)c2)nc1CN1CCCC(C(=O)NCCc2ccc(Cl)cc2)C1` (centres unmarked) is reported as 43.4% (SARS-CoV-2; cytopathic effect; USA_WA1/2020; retest, 8-point, duplicates).
With `C[C@@H]1CS/C(=N\NC(=O)C(=O)[C@H](NC(=O)C2CCCCCC2)C2CCOCC2)N1C` the EC90 was 0.749 µM (SARS-CoV-2; viral replication; 293T-ACE2, USA-WA1/2020).
`Cn1cnc(Cn2c(=O)[nH]/c(=N\c3cc4cn(C)nc4cc3Cl)n(Cc3cc(F)c(F)cc3F)c2=O)n1` gave an EC90 of 0.117 ± 0.026 µM (SARS-CoV-2; viral replication; Delta strain; 72 h).
`CC(C)(C)NCc1ccc(Nc2ccnc3cc(Cl)ccc23)cc1O` gave an efficacy of 54.9% (SARS-CoV-2; cytopathic effect; USA_WA1/2020; retest, 8-point, duplicates).
`CC[C@H](C)[C@H](NC(=O)[C@H](CC(C)C)NC(=O)[C@H](Cc1c[nH]c2ccccc12)NC(=O)[C@H](CCC(N)=O)NC(=O)[C@@H](NC(=O)[C@H](Cc1ccccc1)NC(=O)[C@H](C)NC(=O)[C@H](CCCCNC(=O)COCCOCCNC(=O)COCCOCCNC(=O)CC[C@H](NC(=O)CCCCCCCCCCCCCCCCCCC(=O)O)C(=O)O)NC(=O)[C@H](CCC(N)=O)NC(=O)[C@H](C)NC(=O)[C@@H](NC(=O)[C@H](CCCCN)NC(=O)[C@H](CC(=O)O)NC(=O)[C@H](CC(C)C)NC(=O)C(C)(C)NC(=O)[C@@H](NC(=O)[C@H](CO)NC(=O)[C@H](Cc1ccc(O)cc1)NC(=O)[C@H](CC(=O)O)NC(=O)[C@H](CO)NC(=O)[C@@H](NC(=O)[C@H](Cc1ccccc1)NC(=O)[C@@H](NC(=O)CNC(=O)[C@H](CCC(=O)O)NC(=O)C(C)(C)NC(=O)[C@@H](N)Cc1ccc(O)cc1)[C@@H](C)O)[C@@H](C)O)[C@@H](C)CC)[C@@H](C)CC)C(C)C)C(=O)N[C@@H](C)C(=O)NCC(=O)NCC(=O)N1CCC[C@H]1C(=O)N[C@@H](CO)C(=O)N[C@@H](CO)C(=O)NCC(=O)N[C@@H](C)C(=O)N1CCC[C@H]1C(=O)N1CCC[C@H]1C(=O)N1CCC[C@H]1C(=O)N[C@@H](CO)C(N)=O`: “subjects ADA-positive at baseline” 0% (item: anti-drug antibodies; healthy human subjects; 1.5 mg multiple ascending, baseline, evaluable subjects).
For `COc1ccc(C[C@@H]2c3cc(Oc4cc(C[C@@H]5c6cc(O)c(OC)cc6CCN5C)ccc4O)c(OC)cc3CCN2C)cc1`, the mean inhibition was 0% (SARS-CoV-2; viral cytopathic effect; Vero E6; 1.562 µM).
For `CCN(CCO)CCCC(C)Nc1ccnc2cc(Cl)ccc12` (single isomer, unassigned), the EC50 was 12.7 µM (SARS-CoV-2; viral replication, GFP plate reader screen; BetaCov/Belgium/GHB-03021/2020; cell-based).
`COc1cc2c(cc1OCC1CC1)NC(=O)C21CCN(c2cc(NC3CC3)ncn2)CC1` has an AC50 of 25.1 µM (SARS-CoV-2; cytopathic effect, cell-based CPE; USA_WA1/2020).
`CC(C)(C)[C@H](NC(=O)C(F)(F)F)C(=O)N1C[C@H]2[C@@H]([C@H]1C(=O)N[C@H](C#N)C[C@@H]1CCNC1=O)C2(C)C` gave an inhibition of 18.3% (SARS-CoV-2; viral replication, infectious virus; Vero E6; 0.00195 µM).
`O=C(NCCCN1CCCCCC1)c1ccc2c(c1)sc1nc(-c3ccccc3)cn12` has an AC50 of 14.1 µM (SARS-CoV-2; cytopathic effect, cell-based CPE; USA_WA1/2020).
`Cc1cccc(CN2CCN(C(c3ccccc3)c3ccc(Cl)cc3)CC2)c1` (centres unmarked) has an IC50 of > 10 µM (SARS-CoV-2; viral replication, RT-qPCR; A549 expressing ACE2).
With `NCCC(O)(P(=O)(O)O)P(=O)(O)O` the IC50 was > 2 µM (SARS-CoV-2; viral replication; Huh-7).
With `Cc1ccc(-c2cccc(CN3CCCC(c4nc5ccc(C)cc5c(=O)[nH]4)C3)c2)c(C)c1` (centres unmarked) the maximum response was 96.7% (SARS-CoV-2; cytopathic effect; USA_WA1/2020; retest, 8-point, duplicates).
`Cc1c(-c2ccccc2)oc2c(C(=O)OCCN3CCCCC3)cccc2c1=O` gave an IC50 of > 10 µM (SARS-CoV-2; viral replication; A549 expressing ACE2; inactive set pIC50 4).
The EC50 of `CN1CCC(COc2cnc(-c3cccc(Cn4nc(-c5cccc(C#N)c5)ccc4=O)c3)nc2)CC1` is reported as > 100 µM (SARS-CoV-2; viral replication, high-content imaging screen; BetaCov/Belgium/GHB-03021/2020; cell-based).
`Cc1ccc(C(C)Nc2nc(N3CCNCC3)nc3ccccc23)cc1` (centres unmarked) has an efficacy of 92.4% (SARS-CoV-2; cytopathic effect; USA_WA1/2020; retest 8-point).
`Cc1nn(-c2ccc(Cl)cc2)c2c1C(c1ccc(Cl)cc1)C(C#N)=C(N)O2` (centres unmarked) has a viral reduction of 0.996% (SARS-CoV-2; viral replication; Vero; 1 µM).
Under “viral replication inhibition”, `COc1cc(OC)c2c(=O)[nH]c(-c3cc(C)c(OCCO)c(C)c3)nc2c1` is recorded as “inactive” (SARS-CoV-2; Vero E6; concentration not given, NYC laboratory).
`CN(C)CCC(c1ccc(Cl)cc1)c1ccccn1` (centres unmarked) gave an IC50 of > 10 µM (SARS-CoV-2; viral replication, anti-nucleoprotein immunostaining; Vero E6).
For `CN(C)C(=O)COC(=O)Cc1ccc(OC(=O)c2ccc(NC(=N)N)cc2)cc1`, “viral replication inhibition” read “inactive” (SARS-CoV-2; Vero E6; concentration not given, NYC laboratory).
For `Cc1nc(Nc2ccc(F)cc2)nc(N2CCc3ccccc3C2C)c1C` (centres unmarked), the EC50 was 10.5 µM (SARS-CoV-2; viral replication, high-content imaging screen; cell-based).
The CPE inhibition of `CC(C)=CCc1c(O)ccc(C(=O)/C=C/c2ccc(O)cc2)c1O` is reported as 0% (SARS-CoV-2; viral replication; Vero E6; 1.562 µM).
`CCCCCCCCNC(C)C(O)c1ccc(SC(C)C)cc1` (centres unmarked) has an EC50 of > 100 µM (SARS-CoV-2; viral replication, high-content imaging screen; BetaCov/Belgium/GHB-03021/2020; cell-based).
`CN1CC[C@@]23CCCC[C@@H]2[C@@H]1Cc1ccc(O)cc13` has an IC50 of > 10 µM (SARS-CoV-2; viral replication; Vero E6; inactive set pIC50 4).
With `CNC(=O)[C@@H](NC(=O)[C@H](CC(C)C)[C@H](O)C(=O)NO)C(C)(C)C` the viability difference was 3.99% (C2C12; 1 µM, with: WB venom; relative to: venom alone).
`O=C(O[C@@H]1Cc2c(O)cc(O)cc2O[C@@H]1c1cc(O)c(O)c(O)c1)c1cc(O)c(O)c(O)c1` gave a CPE inhibition of 0% (SARS-CoV-2; viral replication; Vero E6; 3.125 µM).
`CCCCN(CCCC)CCC(O)c1cc2c(Cl)cc(Cl)cc2c2cc(C(F)(F)F)ccc12` (centres unmarked) has an EC50 of 9.12 µM (SARS-CoV-2; viral replication, high-content imaging screen; cell-based).
For `Nc1cc(N2CCCCC2)nc(N)[n+]1[O-]`, “viral replication inhibition” read “inactive” (SARS-CoV-2; concentration not given, Paris laboratory).
With `CCC(CC)COC(=O)[C@H](C)N[P@](=O)(OC[C@H]1O[C@@](C#N)(c2ccc3c(N)ncnn23)[C@H](O)[C@@H]1O)Oc1ccccc1` the EC50 was 3.12 µM (SARS-CoV-2; viral replication, high-content imaging screen; cell-based).
For `CCCC(CCC)C(=O)O`, “viral replication inhibition” read “inactive” (SARS-CoV-2; concentration not given, Paris laboratory).
`Cc1ccc2c(NC(C)c3ccccc3)nc(N3CCNCC3)nc2c1` (centres unmarked) has an efficacy of 92.8% (SARS-CoV-2; cytopathic effect, cell-based CPE; USA_WA1/2020; round 2, 5-point dilution).
With `Nc1ncnc2c([C@@H]3N[C@H](CO)[C@@H](O)[C@H]3O)c[nH]c12` the inhibition was 95.5% (Marburg virus; surface glycoprotein expression; HeLa, Musoke; 100 µM, 1 h).
For `O=C(/C=C/c1ccc(O)c(O)c1/C=C/c1ccc(O)c(O)c1)O[C@H](Cc1ccc(O)c(O)c1)C(=O)O`, the CPE inhibition was 25% (SARS-CoV-2; viral replication; Vero E6; 50 µM; relative to: mean of replicates).
With `CC(=O)[C@@]12O[C@](C)(c3ccccc3)O[C@@H]1C[C@H]1[C@@H]3CCC4=CC(=O)CC[C@]4(C)[C@H]3CC[C@@]12C` the EC50 was > 100 µM (SARS-CoV-2; viral replication, GFP plate reader screen; cell-based).
`Cn1cc(-c2ccncc2)c(-c2ccc(OCc3ccc4ccccc4n3)cc2)n1` has an inhibition of 46.7% (SARS-CoV-2; viral replication; Vero E6, USA-WA1/2020; 2.5 µM).

Repeated from above:
For `Nc1cc(N2CCCCC2)nc(N)[n+]1[O-]`, “viral replication inhibition” read “inactive” (SARS-CoV-2; concentration not given, Paris laboratory).
With `CCC(CC)COC(=O)[C@H](C)N[P@](=O)(OC[C@H]1O[C@@](C#N)(c2ccc3c(N)ncnn23)[C@H](O)[C@@H]1O)Oc1ccccc1` the EC50 was 3.12 µM (SARS-CoV-2; viral replication, high-content imaging screen; cell-based).
For `CCCC(CCC)C(=O)O`, “viral replication inhibition” read “inactive” (SARS-CoV-2; concentration not given, Paris laboratory).
`Cc1ccc2c(NC(C)c3ccccc3)nc(N3CCNCC3)nc2c1` (centres unmarked) has an efficacy of 92.8% (SARS-CoV-2; cytopathic effect, cell-based CPE; USA_WA1/2020; round 2, 5-point dilution).
With `Nc1ncnc2c([C@@H]3N[C@H](CO)[C@@H](O)[C@H]3O)c[nH]c12` the inhibition was 95.5% (Marburg virus; surface glycoprotein expression; HeLa, Musoke; 100 µM, 1 h).
For `O=C(/C=C/c1ccc(O)c(O)c1/C=C/c1ccc(O)c(O)c1)O[C@H](Cc1ccc(O)c(O)c1)C(=O)O`, the CPE inhibition was 25% (SARS-CoV-2; viral replication; Vero E6; 50 µM; relative to: mean of replicates).
With `CC(=O)[C@@]12O[C@](C)(c3ccccc3)O[C@@H]1C[C@H]1[C@@H]3CCC4=CC(=O)CC[C@]4(C)[C@H]3CC[C@@]12C` the EC50 was > 100 µM (SARS-CoV-2; viral replication, GFP plate reader screen; cell-based).
